# Measured values of several laboratories.
# A part holds a random share of what one study measured. Changes are numbered by the printed parent chain.

# Study 1
# Target: UBE2O UBC core domain (UniProt Q9C0C9)
# Method: yeast two-hybrid
# Matrix: yeast
# Setting: mostly zero background
# Reference: not given
# Reading: higher = stronger interaction
# B1: RNF2 RING domain (UniProt Q99496); chain SPRSLHSELMCPICLDMLKNTMTTKECLHRFCADCIITALRSGNKECPTCRKKLVSKRSLR
# B2: RNF31 RING domain (UniProt Q96EP0); chain AFLRRLLAQECAVCGWALPHNRMQALTSCECTICPDCFRQHFTIALKEKHITDMVCPACGRPDLTDDTQLL
# B3: RNF166 RING domain (UniProt Q96A37); chain GDSGLEAQYTCPICLEVYHRPVAIGSCGHTFCGECLQPCLQVPSPLCPLCRLPFDPKKVDK
# B4: TRIM37 RING domain (UniProt O94972); chain SVESIAEVFRCFICMEKLRDARLCPHCSKLCCFSCIRRWLTEQRAQCPHCRAPLQLRELVN
# B5: MYCBP2 RING domain (UniProt O75592); chain TSLKQDADDMCMICFTEALSAAPAIQLDCSHIFHLQCCRRVLENRWLGPRITFGFISCPICKNKINHIVLKD
# B6: RNF122 RING domain (UniProt Q9H9V4); chain AKKLQLYGQTCAVCLEDFKGKDELGVLPCQHAFHRKCLVKWLEVRCVCPMCNKPIASPSEAT
# Residues (chain): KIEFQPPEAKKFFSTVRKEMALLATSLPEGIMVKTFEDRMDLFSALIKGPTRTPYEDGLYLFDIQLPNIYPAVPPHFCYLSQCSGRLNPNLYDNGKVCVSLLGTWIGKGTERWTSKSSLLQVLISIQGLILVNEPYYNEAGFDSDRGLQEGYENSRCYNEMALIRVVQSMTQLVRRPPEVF
Molecule,lacZ reporter activity
B1 (RNF2 RING domain),0
FVKTVEDKYKCEKCHLVLCSPKQTECGHRFCESCMAALLSSSSPKCTACQESIVKDKVF (TRAF3 RING domain (UniProt Q13114)),0
B2 (RNF31 RING domain),0
B3 (RNF166 RING domain),0
B4 (TRIM37 RING domain),0
LDAASGHPLVCPLCHGQYERPCLLDCFHDFCTGCLRGRATDGRLSCPLCQHQTLVKGPSG (Rnf207 RING domain (UniProt Q3V3A7)),0
QVQSRTKIEECVVCSDKKAAVLFQPCGHMCACENCANLMKKCVQCRAVVERRVPFI (MIB1 RING domain (UniProt Q86YT6)),0
MNDVLENELQCIICSEYFIEAVTLNCAHSFCSYCINEWMKRKIECPICRKDIKSKTYSL (RNF8 RING domain (UniProt O76064)),0
PEELAVNNDDCAICWDSMQAARKLPCGHLFHNSCLRSWLEQDTSCPTCRMSLNIADNNR (AMFR RING domain (UniProt Q9UKV5)),0
B5 (MYCBP2 RING domain),0
B6 (RNF122 RING domain),0

# Study 2
# Target: Hepatocyte nuclear factor 3-alpha (Foxa1, Mus musculus, UniProt P35582, residues 1-468, full length assumed)
# Method: EMSA with sequencing
# Molecule type: double-stranded DNA, one strand shown
# Matrix: in vitro
# Concentration: 10 and 20 nM
# Setting: whole designed probe, mean of two concentrations, ends assumed
# Reference: negative control set to 0
# Reading: higher = stronger binding
# All sequences stand within: GTGAGCGGTGCCCATTGATGGGGAAC … TTTCACTGGGATCGTGGGGAC
# Target sequence (chain): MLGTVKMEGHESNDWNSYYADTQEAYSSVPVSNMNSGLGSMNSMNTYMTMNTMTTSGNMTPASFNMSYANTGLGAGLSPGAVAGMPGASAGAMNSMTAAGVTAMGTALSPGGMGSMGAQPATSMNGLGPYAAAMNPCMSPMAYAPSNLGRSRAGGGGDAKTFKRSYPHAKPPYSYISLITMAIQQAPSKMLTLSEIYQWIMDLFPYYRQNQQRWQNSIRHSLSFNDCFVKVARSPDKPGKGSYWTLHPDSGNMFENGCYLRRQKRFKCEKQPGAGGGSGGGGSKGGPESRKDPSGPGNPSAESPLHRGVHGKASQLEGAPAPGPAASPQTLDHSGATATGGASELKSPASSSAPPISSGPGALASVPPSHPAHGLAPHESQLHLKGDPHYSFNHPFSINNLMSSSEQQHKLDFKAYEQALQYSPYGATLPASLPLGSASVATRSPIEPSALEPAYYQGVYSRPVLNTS
Oligonucleotide,normalised bound fraction [ratio]
TTATGTATACAGAATGACTGACTACAACTATGGCAAAAACAAACAACAACAACAACAACAACAACAACAACAAACCCTCAATAGAGGAAAAAGTAATCTAGAAACAGATCAAATTATTAACACAATGACATTTGAATGGTGACAAAATTGGTGATTTTAGTTTTTCTTTCCTTTTAAAATGTTTTTAAAGCAC,0.326
AATGGAATAATTCCTTTACAGGATCAGAACACGTAGGAAGCCAAATTAATAATTGAAAGCTTGTTTGTTTAGCAAAGAACCAGAGCATAAGAAAGTAAATAACCTTAAGGGATATTTCAAGGCCATGAGTACAGCCTAACAGAGTGATGGAAGCAGGGACTCTTGCAGTTAAGCCACTGGAATTTGAATTCCA,0.507
TCATTCGGTGAATATTGCTAATTACTAGAGCCTTCATGGGCAAAGGACAAGGTGGCTGGGCACTGGCCAACTGCCAGCTGTTTCTGGGCCAAAGCAAACAACTTGTGCCTTAGAATGCACTGGTATGGCTGGTGACAACCCCACCAATCCCTAGAGCTCCACTCCAGCCTCTCAATGGAAAACTTTTCTCCTG,0.315
GGGTCCCGGGCGGCGGCAGGAATGCAGGAATGCGCACAGGCTGTGGGCGGCCAGGAGGGAGTCCCGGCGCCTGCCCCAGGGCGGAAGTGTCTTTGTGTACCCTGTCCAACACCTCCCCCCGCCAGCGCGGAAGGCCGGGCTACCTGCGCGCCTGGCAGCGCCTGGCAGCCGGCTGGGTGGGGCGCAGGGGAGC,-0.00844
TCGGCCAGCCTGGCTTCTGCGCCCCGCCAGGAGGTCGCGGAGCGGAGCGCGGCCAGGAAGTGAGCTGAGAGTGAATGACTCATTCACGCTGTTTGTTTATTCATGTCACATTCTCTCCACACACTGGCTCTTCTTTCTTTCGGGAGGAGGGGAGAAAGGAGCGGGAGGGCGGGCGGGCAGGGGAGAGGCAGGC,0.457

# Study 3
# Target: ABI1, truncated, D143A, DHFR fusion (Arabidopsis thaliana)
# Method: DHFR PCA, deep sequencing
# Matrix: yeast
# Setting: methotrexate growth selection, single substitutions
# Together with: (+)-ABA 0.11 µM
# Reference: wild-type fitted maximum
# Reading: higher = stronger binding
# Starting sequence: PYL1, truncated, DHFR fusion (Arabidopsis thaliana); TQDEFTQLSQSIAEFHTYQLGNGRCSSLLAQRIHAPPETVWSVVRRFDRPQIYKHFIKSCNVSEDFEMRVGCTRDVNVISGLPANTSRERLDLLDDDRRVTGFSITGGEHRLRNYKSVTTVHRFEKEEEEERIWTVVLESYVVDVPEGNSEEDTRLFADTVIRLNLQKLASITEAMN
Change,relative binding score
D48I,-2.71%
L94A,-13.1%
T101M,65.4%
T154H,-3.07%
E129M,21.4%
I133S,39.2%
C72I,10.8%
D48T,-2.66%
R123N,13.1%
A35V,-0.753%
R24W,-0.293%
T39W,-3.59%
P146L,25.2%
T6A,52.3%
V62L,22.9%
L166A,10.1%
H34I,5.32%
N22D,51.3%
K54Y,-3.12%

# Study 4
# Target: FOSL2, bZIP domain (human)
# Method: DHFR protein complementation
# Matrix: yeast
# Setting: single substitutions, most at no-binding floor
# Reference: wild-type JUN-FOS pair
# Reading: higher = stronger binding
# Starting sequence: JUN, bZIP domain (human); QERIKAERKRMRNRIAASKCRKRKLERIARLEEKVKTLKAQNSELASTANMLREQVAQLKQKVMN; partner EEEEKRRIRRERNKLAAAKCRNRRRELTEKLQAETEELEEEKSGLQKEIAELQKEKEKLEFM
Change,binding fitness [natural log]
I28T,-0.0615
I28M,-0.0298
A29D,0.034
N42Y,-0.573
T37R,0.0872
A46Q,0.0479
L59S,-1.24
T48L,0.0684
K34A,0.0381
S47Q,0.101
T37A,0.124
S47L,0.106
N42L,0.0333
L31I,-0.158
K34H,0.113
T48P,-1.22
E54G,0.0562

# Study 5
# Target: CCNF, cyclin fold, Cln2 fusion (human)
# Method: yeast growth competition, sequencing
# Matrix: yeast
# Setting: weak parent motif
# Reference: not given
# Reading: higher = stronger binding
# Starting sequence: CDAN1 docking peptide (human); RGARSQLFPPTEA
Change,normalised enrichment score
RGARSQLFPATEA [P10A],1.2
RGARSQLAPPTEA [F8A],0.631
RGAASQLFPPTEA [R4A],-0.0047
RGARAQLFPPTEA [S5A],1.6
RGARSQLFPPTAA [E12A],0.87
AGARSQLFPPTEA [R1A],0.226
